Assay results pooled from the literature.
Every numbered part comes from another study and shows a few of its results, in no order.

Block 1 — technique: aptamer microarray, sandwich; form: DNA with 2'F-ANA; matrix: in vitro; concentration: 200 nM; together with: Cy3 exosite-II aptamer, 400 nM; direction: higher = stronger binding; strand: GGTTGGTGTGGTTGG
Target: Prothrombin, mature alpha-thrombin (F2, Homo sapiens, UniProt P00734)
Notes: whole 15-mer aptamer, many near background
Modification	mean fluorescence intensity [a.u.]
2'F-ANA at 2 8 9 10 11 12 15	131
2'F-ANA at 3 5 7 8 9 11 12 15	224
2'F-ANA at 1 3 5 8 9 15	69.3
2'F-ANA at 1 9 10 11 13 14 15	49.1
2'F-ANA at 2 3 4 9 10 11 15	238
2'F-ANA at 1 4 6 8 9 11 13 15	75.4
2'F-ANA at 1 4 5 8 12 14 15	44
2'F-ANA at 1 4 7 8 11 15	129
2'F-ANA at 3 6 7 9 10 12 14	453
2'F-ANA at 1 6 8 9 10 15	57.5
2'F-ANA at 1 2 3 4 5 6 7 8 9 10 11 12 13	50.1
2'F-ANA at 2 3 4 6 10 11 12 15	259
2'F-ANA at 2 3 6 10 12 13 14	270
2'F-ANA at 3 5 8 12 13	275
2'F-ANA at 1 3 6 12 14 15	111
2'F-ANA at 1 2 3 4 6 7 9 10 11 12 14	62.7
2'F-ANA at 4 6 7 9 10 13 15	66.6
2'F-ANA at 1 3 7 9 12 13	466
2'F-ANA at 2 5 6 8 9 10 12 13 15	69.1
2'F-ANA at 3 6 7 11 13 15	787
2'F-ANA at 6 8 10 11 15	134
2'F-ANA at 2 7 8 9 13 15	368
2'F-ANA at 2 6 10 13 15	111

Block 2 — technique: protein-binding microarray; form: double-stranded DNA, one strand shown; matrix: in vitro; concentration: not given; direction: higher = stronger binding
Target: Protein C-ets-1 (ETS1, Homo sapiens, UniProt P14921, residues 1-441, Y397A, full length assumed)
Notes: k-mer, scored over probes, only values ≥0.25
Construct (chain): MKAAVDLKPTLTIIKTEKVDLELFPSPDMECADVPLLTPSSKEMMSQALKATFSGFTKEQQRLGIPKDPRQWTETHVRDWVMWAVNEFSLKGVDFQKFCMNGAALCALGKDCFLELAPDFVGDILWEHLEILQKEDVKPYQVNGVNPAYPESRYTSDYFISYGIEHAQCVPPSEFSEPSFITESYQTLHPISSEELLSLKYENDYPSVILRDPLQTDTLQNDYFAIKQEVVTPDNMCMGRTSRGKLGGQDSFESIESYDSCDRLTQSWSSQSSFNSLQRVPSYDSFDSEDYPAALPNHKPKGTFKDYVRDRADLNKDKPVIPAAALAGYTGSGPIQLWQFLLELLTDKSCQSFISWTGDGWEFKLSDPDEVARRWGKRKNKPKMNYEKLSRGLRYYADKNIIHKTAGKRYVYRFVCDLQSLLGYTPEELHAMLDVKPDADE
Strand	E-score
AATGCAAA	0.261
GAGTGACA	0.317
CAGTTTGC	0.268
CATCCGCG	0.308
CATGTACG	0.315
CAATCGCG	0.27
ACGCAACA	0.321
CACCGGTG	0.368
AACCGACA	0.279
AACGTACA	0.258
GGTTGCAA	0.27
ACAGCAAA	0.307
ACATGCAA	0.269
CGGCAAAG	0.27
CGGCAATA	0.315
GCCCGCCC	0.274
TCGGAACA	0.296
ATTGCAAC	0.301
ATTGACAG	0.271
ATTTGCCA	0.386
ACATCCTG	0.261
GACCGCAA	0.257
CTTTGGCA	0.257
CGGCAATC	0.287
CGTTTTGC	0.352

Block 3 — technique: RNA Bind-n-Seq; form: RNA; matrix: in vitro; concentration: 200 nM; notes: whole 134-nt RNA, ends assumed; together with: 150 mM LiCl; baseline: input library; direction: higher = stronger binding; all molecules: 7-deaza-guanosine replaces G
Target: Ras GTPase-activating protein-binding protein 1, full length (G3BP1, Homo sapiens, UniProt Q13283)
Chain of UniProt Q13283 (whole entry, looked up): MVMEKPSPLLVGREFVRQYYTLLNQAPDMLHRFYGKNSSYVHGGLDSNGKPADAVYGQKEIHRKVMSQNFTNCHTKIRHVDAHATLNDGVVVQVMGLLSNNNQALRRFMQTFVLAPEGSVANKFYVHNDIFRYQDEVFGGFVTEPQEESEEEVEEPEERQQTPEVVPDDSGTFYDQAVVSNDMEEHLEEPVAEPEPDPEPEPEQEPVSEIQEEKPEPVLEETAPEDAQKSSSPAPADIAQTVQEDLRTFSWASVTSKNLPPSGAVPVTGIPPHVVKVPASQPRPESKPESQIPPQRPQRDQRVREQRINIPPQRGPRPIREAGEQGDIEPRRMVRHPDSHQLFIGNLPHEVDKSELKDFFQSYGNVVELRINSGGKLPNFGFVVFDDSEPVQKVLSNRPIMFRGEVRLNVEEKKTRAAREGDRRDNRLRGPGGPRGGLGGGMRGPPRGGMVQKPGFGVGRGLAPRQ
Shared flanks, not repeated: GGGAGUUCUACAGUCCGACGAUC … UGGAAUUCUCGGGUGUCAAGG
Strand	log2 enrichment
GUCCUGUGCUACACAUCGUAUGUACCGAAUCAAAUUUUUAAACCCCCAAAUUUUUAAAAAAGUAUUAUGUUACGCCGUUCGGAUCUGCAC	-0.0283
UCCUGUGCUACACAUCGUAUGUACCGAAUCGGGGUGGGGAAAAAAAGGGGAAAAAGGGGAAAGUAUUAUGUUACGCCGUUCGGAUCUGCA	-0.321
CUCAAGUCCUGUGCUACACAUCGUAUGUACCGAAUCGGGAAAGGGAGGGAGGGAAAGUAUUAUGUUACGCCGUUCGGAUCUGCACUUCCA	-0.0879
AAGUCCUGUGCUACACAUCGUAUGUACCGAAUCGGCCCCGGGGCCCCGGCCCCGGGAAAGUAUUAUGUUACGCCGUUCGGAUCUGCACUU	-1.59
UGGCCGUGGUGGCAUGCGGGGAGGAAGAGGUGGCCUCAUGGAUCGUGGUGGUCCCGGUGGAAUGUUCAGAGGUGGCCGUGGUGGAGACAG	0.33
ACCAUGCAGGUGGGCAUCUUUGGGAAGUGGGGCAAGGGGGGGAUAGGGAGGGGGGUAACACUUUGGGAAAAGGUGGUCCCAGGUCGUUUC	0.0542
CUGUGCUACACAUCGUAUGUACCGAAUCGGGGCCCCCCCGGGCCCCCCCGGCCCCCCCGGGGAAAGUAUUAUGUUACGCCGUUCGGAUCU	0.284
UGGGAGGUGGAUUUUGUUUAUUUUUUUAGCUCAUUUCCAGGGGUGGCAAUUUUUUUUUAAUAUGUGUCAUGAAUAAAGUUGUUUUUGAAA	-0.809
CACAGACAACACGCACCCACACAGACACAGAGGGAAGGGGUUGGGAUGGGGACAGGGUGCACAGCAGGGCGAAAUAGGACCCCAGCCCCU	1.18
CUCAAGUCCUGUGCUACACAUCGUAUGUACCGAAUCGGGAAGGGAAGGGAAGGGAAAGUAUUAUGUUACGCCGUUCGGAUCUGCACUUCC	0.105
CUGUGCUACACAUCGUAUGUACCGAAUCGGGGUUUUUUUGGGUUUUUUUGGUUUUUUUGGGGAAAGUAUUAUGUUACGCCGUUCGGAUCU	1.42

Block 4 — technique: RNA Bind-n-Seq; form: RNA; matrix: in vitro; concentration: 365 nM; baseline: no-protein control; direction: higher = stronger binding
Target: RNA binding protein fox-1 homolog 2, RRM domain, GST-SBP tag (RBFOX2, Homo sapiens, UniProt O43251-10, residues 100-194)
Notes: natural RNA segment, single round, ends assumed
Shared flanks, not repeated: GGGAGUUCUACAGUCCGACGAUC … UGGAAUUCUCGGGUGCCAA
Residues (chain): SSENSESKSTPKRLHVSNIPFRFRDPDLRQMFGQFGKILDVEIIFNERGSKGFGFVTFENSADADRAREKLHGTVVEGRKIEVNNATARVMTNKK
Strand	RBNS enrichment (R)
GCAUUAUUCUUCAGAAGGGGACCUGUUUUCUUCAAGGGAAGAAACACUCUUAUUCCCAAACUACAGAAUAAUGUGUUAAACAUGCUAAAUAGUUCUAUCAGGAAAACAAA	0.514
AAUGUCCCUGGUAUCUCUGUGGUCAACUAAGAGUGGUUCUACAAAGAUAGUCCUCAGUGAAAACAGGCUAUCUCCUCCUGGGUCAUCUCAGGUCUCAGGCACCAGUCCAU	0.241
CAUGUUGAUCAGUCAGAGGAACUGAGAAAGCCACUAGAUCCAAGCUUAGUCCCAAGAAGAGGGUGAAGACUCGGCUGAGUCACUUGUGUGUGACCCCUACCAGAACAGAG	0.421
UCUAGAUGCCUGUAGCCUGUGGGGAAAAGCCAACUAGAAAACAACUGGCGUUUAUCAGGUACCUUAGAUUGGUCACUUAUACAGCUAAUUUUAUUCGUAGAAAUCAGUAG	0.427
CGCCCUUAGAAGCAGGGAUUGCAAAGCUUAGGGCCCCCGUGCCAAGCAAAGACCAAAGAUGCAUCAGCUUAAAGAGAAGUCAGACGACAAUGACGAAUCAUUCCAAGGCC	0.348
CAUCCUCCAAUUGUGUUUAUUUACAUGAGAAGAUCAUACAAAAGCCCUCCGCUCUAGUCCUAGCAGGGCAGCCAUGAGCCGAGGGGAGGUGGAGAAGGCUUGUGCAGGUA	0.418
UCCCAGUACCCCCAAGAACGUCUGAGCCUUCAAUGUUGAAUUUUUUCUUUAUUAAAAUUACUUUUAUCUUAUAAAAUCAACUAAUCAAAAAUGAUAUAGACGACAGCACU	0.621
UCCUCUUUUAUAGCUAGCAUGGGAAAAUCCCAUCCCUAAUAAUUGUGGACUCUUGGCCCAGGAAUCCACAAUAAUAGCUAGUGGUAGAAUUGGGAUGUAGCCUGAUUAUA	0.322
CCUGCAGCCCUUCUGCGCCCUGAGGGCUCUGCCAUCACCCACAGACCAGGCAAUCCUGGCCUGGUACCUGCGCCCAGCACCAACAGAUGGGCAGAAUGGACGGGGUGGGC	0.453
AGUGUGUGUGUGUGACUAGACCUCUCAUUUUAAGCUCUAGUCGUAGCACUUUUUCAGAGUCUCCUAGGCGCUGUUGCAGCCCAGCUGGGGCAGCUAGCAUGCCAGGUUGG	9.42
UGUUCUCUGUGAAGUGUACUCUUGGGAAGUAUUAACUUUAUAUACAGUUCAGGGGAUCUCAGCUAACUCUAGUGGAAGUGAUACAAAGCAAGCUUAAAUUACAGAAGCAA	0.411
UUGUAGCAGCUAUAUAUUUCCCCUUGGUCCCAAGCCUGAUACUUUAGCCAUCAUAACUCACUAACAGGGAGAAGUAGCUAGUAGCAAUGUGCCUUGAUUGAUUAGAUAAA	0.28

Block 5 — technique: protein binding microarray; form: double-stranded DNA, one strand shown; matrix: in vitro; concentration: not given; baseline: not given; direction: higher = stronger binding
Target: Histone acetyltransferase KAT6A, both winged helices, GST fusion (KAT6A, Homo sapiens, UniProt Q92794, residues 1-181)
Notes: 8-mer, flanks averaged, mean of 2 arrays, mostly near background
Target sequence (chain): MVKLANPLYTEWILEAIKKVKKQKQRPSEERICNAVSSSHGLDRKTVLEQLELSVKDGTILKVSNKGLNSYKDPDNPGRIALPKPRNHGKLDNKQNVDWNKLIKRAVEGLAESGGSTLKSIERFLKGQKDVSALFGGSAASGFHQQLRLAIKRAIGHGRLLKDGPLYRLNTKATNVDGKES
Strand	E-score
TAGTGTAA	-0.0274
CCCATACC	-0.0534
ACTCTAGG	-0.217
CAAGCTGG	-0.0794
TCCTATCA	-0.0581
GAAAAACA	-0.0402
AGGTGCAT	-0.207
GGCACCCA	-0.0662
GGACAGCC	0.0549
CATGCAAA	0.0228
CTTCTCGA	-0.143
CCTGGGCA	-0.204
GTACCTCA	-0.14
CACTGCGA	0.158
ATGCTCAA	-0.119
GGAACCTA	0.0286
GTTGTCTA	-0.0565
CCTTGAAA	-0.0596
ACCTAGAT	-0.202
GCGCCCGC	0.337
AAAGAGGA	-0.236
GGCACGCA	0.119
TGGGGTAA	-0.149
